Published values pooled from the literature.
Parts stem from different laboratories: compare values within a part only. “And” joins repeats or separate records; there may be more than shown.
Chain of UniProt Q8TDX7 (whole entry, looked up): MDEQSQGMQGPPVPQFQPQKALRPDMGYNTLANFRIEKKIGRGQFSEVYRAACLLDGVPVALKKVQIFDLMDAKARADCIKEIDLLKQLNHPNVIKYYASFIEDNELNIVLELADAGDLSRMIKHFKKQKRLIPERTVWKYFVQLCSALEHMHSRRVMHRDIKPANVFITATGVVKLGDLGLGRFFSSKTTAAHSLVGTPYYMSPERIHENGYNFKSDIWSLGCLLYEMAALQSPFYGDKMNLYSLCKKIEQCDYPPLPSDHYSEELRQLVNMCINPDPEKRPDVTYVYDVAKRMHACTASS
Chain of UniProt Q9H1R3 (whole entry, looked up): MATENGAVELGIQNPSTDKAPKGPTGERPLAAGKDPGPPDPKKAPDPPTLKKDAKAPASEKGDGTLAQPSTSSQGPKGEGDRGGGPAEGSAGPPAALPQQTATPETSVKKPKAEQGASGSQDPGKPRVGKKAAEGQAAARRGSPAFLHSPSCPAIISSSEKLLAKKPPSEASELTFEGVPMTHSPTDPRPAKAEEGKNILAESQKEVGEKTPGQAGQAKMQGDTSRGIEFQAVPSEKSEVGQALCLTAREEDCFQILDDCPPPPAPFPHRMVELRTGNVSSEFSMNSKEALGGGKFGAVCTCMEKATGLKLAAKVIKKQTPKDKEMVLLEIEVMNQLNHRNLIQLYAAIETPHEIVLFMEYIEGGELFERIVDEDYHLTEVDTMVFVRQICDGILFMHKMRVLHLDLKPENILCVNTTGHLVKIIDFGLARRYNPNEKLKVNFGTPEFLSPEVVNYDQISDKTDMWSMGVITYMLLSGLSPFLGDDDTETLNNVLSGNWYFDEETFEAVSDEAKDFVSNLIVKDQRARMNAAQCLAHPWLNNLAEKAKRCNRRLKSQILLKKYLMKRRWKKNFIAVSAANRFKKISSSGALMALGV
Chain of UniProt Q15303 (whole entry, looked up): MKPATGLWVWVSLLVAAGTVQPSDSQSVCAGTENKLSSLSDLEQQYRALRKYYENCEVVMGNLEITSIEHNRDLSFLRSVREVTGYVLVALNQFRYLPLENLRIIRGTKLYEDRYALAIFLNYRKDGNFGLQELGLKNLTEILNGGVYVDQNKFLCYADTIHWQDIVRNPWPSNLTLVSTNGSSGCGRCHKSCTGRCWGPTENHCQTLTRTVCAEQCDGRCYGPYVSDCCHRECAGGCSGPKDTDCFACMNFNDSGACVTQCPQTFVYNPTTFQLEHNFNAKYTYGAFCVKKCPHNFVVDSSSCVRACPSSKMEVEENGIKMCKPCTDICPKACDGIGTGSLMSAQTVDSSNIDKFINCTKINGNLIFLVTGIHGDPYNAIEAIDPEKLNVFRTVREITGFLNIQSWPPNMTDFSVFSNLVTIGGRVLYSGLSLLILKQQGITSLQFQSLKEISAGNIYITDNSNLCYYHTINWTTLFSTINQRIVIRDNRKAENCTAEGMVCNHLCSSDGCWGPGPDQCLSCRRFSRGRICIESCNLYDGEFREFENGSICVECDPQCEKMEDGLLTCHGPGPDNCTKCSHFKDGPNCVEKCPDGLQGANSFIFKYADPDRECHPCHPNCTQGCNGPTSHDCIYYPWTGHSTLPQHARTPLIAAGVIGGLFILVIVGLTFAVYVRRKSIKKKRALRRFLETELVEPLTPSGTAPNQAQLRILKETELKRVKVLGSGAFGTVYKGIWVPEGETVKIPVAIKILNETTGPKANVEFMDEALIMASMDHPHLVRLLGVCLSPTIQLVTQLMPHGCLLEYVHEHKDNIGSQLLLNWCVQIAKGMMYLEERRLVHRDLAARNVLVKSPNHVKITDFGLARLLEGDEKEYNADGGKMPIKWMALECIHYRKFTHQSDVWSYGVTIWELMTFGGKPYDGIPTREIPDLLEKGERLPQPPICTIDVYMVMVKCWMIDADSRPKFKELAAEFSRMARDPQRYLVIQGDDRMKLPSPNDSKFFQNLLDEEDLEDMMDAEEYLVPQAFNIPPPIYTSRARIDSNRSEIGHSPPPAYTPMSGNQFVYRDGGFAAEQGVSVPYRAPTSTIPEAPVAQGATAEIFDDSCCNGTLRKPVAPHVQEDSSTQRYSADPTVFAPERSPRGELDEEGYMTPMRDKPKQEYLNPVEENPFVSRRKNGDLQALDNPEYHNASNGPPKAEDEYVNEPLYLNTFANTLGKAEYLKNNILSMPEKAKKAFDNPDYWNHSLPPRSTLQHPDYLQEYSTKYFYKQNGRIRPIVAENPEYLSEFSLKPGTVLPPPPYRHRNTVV
Chain of UniProt P45983 (whole entry, looked up): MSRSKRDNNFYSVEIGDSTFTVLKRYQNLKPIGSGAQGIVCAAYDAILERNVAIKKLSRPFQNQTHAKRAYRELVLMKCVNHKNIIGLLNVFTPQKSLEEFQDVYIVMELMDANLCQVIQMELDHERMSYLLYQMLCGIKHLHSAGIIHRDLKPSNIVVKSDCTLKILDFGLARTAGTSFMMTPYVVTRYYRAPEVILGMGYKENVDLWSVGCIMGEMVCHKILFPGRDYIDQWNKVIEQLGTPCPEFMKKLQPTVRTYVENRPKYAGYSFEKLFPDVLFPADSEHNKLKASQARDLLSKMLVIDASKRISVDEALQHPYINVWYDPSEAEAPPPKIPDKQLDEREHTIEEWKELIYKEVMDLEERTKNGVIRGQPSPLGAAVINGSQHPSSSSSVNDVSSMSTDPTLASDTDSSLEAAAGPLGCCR
Chain of UniProt P51617 (whole entry, looked up): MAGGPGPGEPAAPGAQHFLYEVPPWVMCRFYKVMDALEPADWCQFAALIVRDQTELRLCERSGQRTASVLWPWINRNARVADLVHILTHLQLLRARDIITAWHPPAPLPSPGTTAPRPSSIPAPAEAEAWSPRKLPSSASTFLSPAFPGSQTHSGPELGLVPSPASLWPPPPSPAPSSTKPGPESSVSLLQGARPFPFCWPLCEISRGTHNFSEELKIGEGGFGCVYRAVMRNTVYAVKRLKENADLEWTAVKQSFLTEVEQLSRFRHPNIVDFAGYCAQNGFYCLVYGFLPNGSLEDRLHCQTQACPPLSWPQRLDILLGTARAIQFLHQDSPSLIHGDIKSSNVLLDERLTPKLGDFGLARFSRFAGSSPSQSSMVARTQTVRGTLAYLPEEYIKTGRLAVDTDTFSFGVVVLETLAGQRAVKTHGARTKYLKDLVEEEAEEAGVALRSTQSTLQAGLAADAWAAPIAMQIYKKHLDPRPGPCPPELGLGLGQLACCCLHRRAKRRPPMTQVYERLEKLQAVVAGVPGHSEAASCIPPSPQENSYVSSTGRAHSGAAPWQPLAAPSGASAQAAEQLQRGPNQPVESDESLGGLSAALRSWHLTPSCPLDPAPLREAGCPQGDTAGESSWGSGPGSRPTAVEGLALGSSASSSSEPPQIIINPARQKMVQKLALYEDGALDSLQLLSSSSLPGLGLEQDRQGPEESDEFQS
Chain of UniProt Q9HCP0 (whole entry, looked up): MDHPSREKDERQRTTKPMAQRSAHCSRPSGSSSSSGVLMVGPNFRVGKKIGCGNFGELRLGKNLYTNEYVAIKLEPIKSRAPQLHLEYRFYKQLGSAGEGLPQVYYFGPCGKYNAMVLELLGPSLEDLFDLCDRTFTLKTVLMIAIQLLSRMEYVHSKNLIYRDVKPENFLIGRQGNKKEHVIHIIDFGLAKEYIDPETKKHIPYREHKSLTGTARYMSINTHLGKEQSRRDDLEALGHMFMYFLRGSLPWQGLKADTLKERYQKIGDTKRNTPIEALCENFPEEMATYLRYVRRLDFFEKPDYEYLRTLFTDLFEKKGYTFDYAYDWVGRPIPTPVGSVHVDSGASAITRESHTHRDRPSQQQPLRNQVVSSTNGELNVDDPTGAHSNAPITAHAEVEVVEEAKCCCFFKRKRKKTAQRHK
Chain of UniProt Q8IW41 (whole entry, looked up): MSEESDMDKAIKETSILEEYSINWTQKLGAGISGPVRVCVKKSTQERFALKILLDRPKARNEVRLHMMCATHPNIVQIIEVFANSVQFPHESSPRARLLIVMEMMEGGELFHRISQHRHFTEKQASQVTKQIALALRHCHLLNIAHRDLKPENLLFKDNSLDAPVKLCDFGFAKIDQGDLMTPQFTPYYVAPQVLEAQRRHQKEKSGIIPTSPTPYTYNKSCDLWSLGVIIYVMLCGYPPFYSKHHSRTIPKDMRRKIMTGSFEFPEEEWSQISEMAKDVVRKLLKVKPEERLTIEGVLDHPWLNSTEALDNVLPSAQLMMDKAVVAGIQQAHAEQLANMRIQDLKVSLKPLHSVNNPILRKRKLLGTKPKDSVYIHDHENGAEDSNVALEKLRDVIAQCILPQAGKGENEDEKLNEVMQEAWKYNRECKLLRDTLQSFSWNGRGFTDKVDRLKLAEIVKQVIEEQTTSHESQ
Chain of UniProt P05771 (whole entry, looked up): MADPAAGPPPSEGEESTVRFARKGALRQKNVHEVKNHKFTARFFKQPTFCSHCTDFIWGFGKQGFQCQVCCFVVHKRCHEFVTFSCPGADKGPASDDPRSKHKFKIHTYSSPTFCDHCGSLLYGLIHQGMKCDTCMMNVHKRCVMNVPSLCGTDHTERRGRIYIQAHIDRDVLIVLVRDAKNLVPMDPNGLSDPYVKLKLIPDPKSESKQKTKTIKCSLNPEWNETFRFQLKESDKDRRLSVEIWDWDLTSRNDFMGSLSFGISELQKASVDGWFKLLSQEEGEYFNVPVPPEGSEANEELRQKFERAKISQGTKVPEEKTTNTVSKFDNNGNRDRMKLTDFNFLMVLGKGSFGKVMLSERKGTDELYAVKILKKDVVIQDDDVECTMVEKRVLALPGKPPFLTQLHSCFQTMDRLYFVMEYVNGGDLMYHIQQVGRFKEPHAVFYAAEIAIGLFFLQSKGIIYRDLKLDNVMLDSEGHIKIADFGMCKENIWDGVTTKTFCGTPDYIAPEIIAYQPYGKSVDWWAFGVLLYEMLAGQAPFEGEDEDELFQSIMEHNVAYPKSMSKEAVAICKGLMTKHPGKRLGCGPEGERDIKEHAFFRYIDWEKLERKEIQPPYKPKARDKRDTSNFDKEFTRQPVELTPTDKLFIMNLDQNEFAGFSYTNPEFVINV

Block 1 — effect on: enzyme activity; action: inhibitor; tested at: 0.5 µM; baseline: control
Compound: COC[C@H]1OC(=O)c2coc3c2[C@@]1(C)C1=C(C3=O)[C@@H]2CCC(=O)[C@@]2(C)C[C@H]1OC(C)=O
| target | remaining activity |
| --- | --- |
| Myosin light chain kinase 2, skeletal/cardiac muscle (MYLK2, Homo sapiens, UniProt Q9H1R3) | 95.9% |
| Serine/threonine-protein kinase 26 (STK26, Homo sapiens, UniProt Q9P289) | 95.8% |
| MAP kinase-activated protein kinase 5 (MAPKAPK5, Homo sapiens, UniProt Q8IW41) | 88.3% |
| Serine/threonine-protein kinase Nek7 (NEK7, Homo sapiens, UniProt Q8TDX7) | 108% |
| Receptor tyrosine-protein kinase erbB-4 (ERBB4, Homo sapiens, UniProt Q15303) | 83.9% |
| Mitogen-activated protein kinase 8 (MAPK8, Homo sapiens, UniProt P45983) | 98.7% |
| Ephrin type-A receptor 1 (EPHA1, Homo sapiens, UniProt P21709) | 98.3% |
| Protein kinase C beta type, isoform beta-II (PRKCB, Homo sapiens, UniProt P05771) | 117% |
| Casein kinase I isoform gamma-1 (CSNK1G1, Homo sapiens, UniProt Q9HCP0) | 94.6% |
| Interleukin-1 receptor-associated kinase 1 (IRAK1, Homo sapiens, UniProt P51617) | 119% |

Block 2 — cell line: mouse MPNST tumor cells; technique: high-content nuclear imaging; item: cell number; tested at: 10 µM; time: 12 h; setting: mean of 2 replicates; baseline: plate mean; direction: higher = more cells
| SMILES | nuclei count [z-score] |
| --- | --- |
| O=[N+]([O-])O[C@@H]1CO[C@H]2[C@@H]1OC[C@@H]2O | 1.56 |
| Cc1ccc(C23CNCC2C3)cc1 (stereo not shown) | 1.09 |
| CC(C)N(CCC(C(N)=O)(c1ccccc1)c1ccccn1)C(C)C (stereo not shown) | 1.34 |
| c1ccc2c(c1)OCC(C1=NCCN1)O2 (stereo not shown) | -0.931 |
| NCCCCCNC1(c2ccccc2)CCCCC1 | 1.4 |

Block 3 — cell line: Huh-7; tested at: 10 µM; time: 24 h
| Compound | viability |
| --- | --- |
| CCCC(C)C1(CC)C(=O)NC(=S)NC1=O (stereo not shown) | 103% |
| C[N+]1(C)[C@@H]2CC[C@H]1C[C@@H](OC(=O)C(CO)c1ccccc1)C2 (stereo partly shown) | 99.1% |
| CC(C)C[C@H](CN)CC(=O)O | 99% |
| CCC1(c2ccc(N)cc2)CCC(=O)NC1=O (stereo not shown) | 97.4% |

Block 4 — organism: Staphylococcus aureus; strain: USA300; tested at: 2 x MIC
Compound: CCCCC[C@@H](O)CC(=O)N[C@H]1COC(=O)[C@H](CO)NC(=O)CNC(=O)[C@H]([C@@H](C)O)NC(=O)[C@H](Cc2ccccc2)NC(=O)[C@@H](Cc2c[nH]c3ccccc23)NC(=O)[C@@H]([C@H](C)O)NC(=O)[C@H](CC(N)=O)NC(=O)[C@@H]([C@H](C)O)NC(=O)[C@H](CC(C)C)NC(=O)[C@@H](Cc2c[nH]c3ccccc23)N(C)C(=O)CNC(=O)[C@H](CO)NC(=O)[C@@H](CO)NC1=O
| time | viable cells |
| --- | --- |
| 300 min | 300 CFU/mL and 500 CFU/mL and 400 CFU/mL |
| 15 min | 5400 CFU/mL and 5000 CFU/mL and 4400 CFU/mL |
| 180 min | 500 CFU/mL and 700 CFU/mL and 400 CFU/mL |

Repeated from above (block 1):
| target | remaining activity |
| --- | --- |
| Myosin light chain kinase 2, skeletal/cardiac muscle (MYLK2, Homo sapiens, UniProt Q9H1R3) | 95.9% |
| Serine/threonine-protein kinase 26 (STK26, Homo sapiens, UniProt Q9P289) | 95.8% |
